# Experimental data from different studies.
# Numbered parts are unrelated; each lists some results of a single study.

# Set 1 — method: universal PBM; form: double-stranded DNA, one strand shown; matrix: in vitro; concentration: 600 nM; reading: higher = stronger binding
# Target: Sal-like protein 4, full length isoform A (SALL4, Homo sapiens, UniProt Q9UJQ4, residues 1-1053)
# Chain of UniProt Q9UJQ4 (whole entry, looked up): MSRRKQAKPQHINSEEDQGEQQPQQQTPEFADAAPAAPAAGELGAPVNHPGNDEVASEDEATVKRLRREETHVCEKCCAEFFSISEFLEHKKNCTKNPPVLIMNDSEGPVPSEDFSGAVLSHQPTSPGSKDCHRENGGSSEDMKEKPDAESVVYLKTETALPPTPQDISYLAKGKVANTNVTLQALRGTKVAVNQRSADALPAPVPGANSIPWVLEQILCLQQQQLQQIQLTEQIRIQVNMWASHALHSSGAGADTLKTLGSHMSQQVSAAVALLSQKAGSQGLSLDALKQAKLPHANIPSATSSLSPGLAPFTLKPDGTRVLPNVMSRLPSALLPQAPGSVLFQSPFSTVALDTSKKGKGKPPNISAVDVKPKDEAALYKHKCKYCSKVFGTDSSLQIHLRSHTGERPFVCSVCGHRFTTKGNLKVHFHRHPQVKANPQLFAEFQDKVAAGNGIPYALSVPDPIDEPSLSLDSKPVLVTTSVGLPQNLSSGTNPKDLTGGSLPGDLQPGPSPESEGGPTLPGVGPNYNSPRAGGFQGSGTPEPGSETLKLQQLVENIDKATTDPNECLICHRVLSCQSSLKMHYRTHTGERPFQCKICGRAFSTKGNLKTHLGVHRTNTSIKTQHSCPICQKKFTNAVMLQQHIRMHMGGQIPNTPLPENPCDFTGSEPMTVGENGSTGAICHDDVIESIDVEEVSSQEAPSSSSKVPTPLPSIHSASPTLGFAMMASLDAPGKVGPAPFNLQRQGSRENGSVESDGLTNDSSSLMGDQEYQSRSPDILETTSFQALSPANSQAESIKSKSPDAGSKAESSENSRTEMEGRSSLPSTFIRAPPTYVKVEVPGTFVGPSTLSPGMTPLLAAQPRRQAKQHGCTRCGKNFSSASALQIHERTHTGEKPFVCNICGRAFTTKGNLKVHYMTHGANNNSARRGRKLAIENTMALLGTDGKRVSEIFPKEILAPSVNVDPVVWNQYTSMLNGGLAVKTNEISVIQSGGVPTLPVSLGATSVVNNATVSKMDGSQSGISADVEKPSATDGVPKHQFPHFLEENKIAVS
# Setting: 8-mer, flanks averaged, mean of replicates
Strand,E-score
ACCTAGCC,-0.193
AGACTAAG,0.0124
GCAATTCA,0.0964

# Further values, each from its own experiment
# G3BP1 full length: Ras GTPase-activating protein-binding protein 1, full length (G3BP1, Homo sapiens, UniProt Q13283)
# Chain of UniProt Q13283 (whole entry, looked up): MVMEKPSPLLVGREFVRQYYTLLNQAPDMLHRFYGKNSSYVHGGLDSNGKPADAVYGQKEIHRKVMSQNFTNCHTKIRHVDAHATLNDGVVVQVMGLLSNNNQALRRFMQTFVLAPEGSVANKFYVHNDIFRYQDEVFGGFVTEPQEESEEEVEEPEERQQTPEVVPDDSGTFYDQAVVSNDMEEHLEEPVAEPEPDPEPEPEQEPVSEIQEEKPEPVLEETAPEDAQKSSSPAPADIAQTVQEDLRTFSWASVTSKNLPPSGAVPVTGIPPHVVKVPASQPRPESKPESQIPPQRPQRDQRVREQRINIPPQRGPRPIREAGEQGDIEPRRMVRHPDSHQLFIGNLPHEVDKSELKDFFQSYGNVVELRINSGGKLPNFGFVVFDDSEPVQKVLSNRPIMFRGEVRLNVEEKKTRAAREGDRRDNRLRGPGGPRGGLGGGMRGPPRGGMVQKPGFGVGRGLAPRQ
Molecule,target,assay,system,conditions,scale,quantity,value
GGGAGUUCUACAGUCCGACGAUCCCUGUGCUACACAUCGUAUGUACCGAAUCGGGGCCCCCCGGGGCCCCCCGGGGCCCCCCGGAAAGUAUUAUGUUACGCCGUUCGGAUCUGUGGAAUUCUCGGGUGUCAAGG,G3BP1 full length,RNA Bind-n-Seq,"RNA, in vitro","200 nM, whole 134-nt RNA, ends assumed, together with: 150 mM KCl","reference: input library, higher = stronger binding",log2 enrichment,-0.898
"PhoQ, residues 284 288 289 292 302 303 AGHLVA","PhoP, residues 12 14 15 18 19 SGWQI (Escherichia coli, UniProt P23836)","Sort-seq, item: YFP reporter",E. coli,"PhoQ-PhoP variant library, together with: 10 µM Mg2+","reference: high Mg2+ state, higher = stronger signaling",fold induction,5.35
GGGAGUUCUACAGUCCGACGAUCCUCAAGUCCUGUGCUACACAUCGUAUGUACCGAAUCGGAAAAAGGAAAGGAGGAAAGUAUUAUGUUACGCCGUUCGGAUCUGCACUUCCAUGGAAUUCUCGGGUGUCAAGG (7-deaza-guanosine replaces G),G3BP1 full length,RNA Bind-n-Seq,"RNA, in vitro","200 nM, whole 134-nt RNA, ends assumed, together with: 150 mM LiCl","reference: input library, higher = stronger binding",log2 enrichment,-0.987
ATGAGGAA,"Histone acetyltransferase KAT6A, winged helix 1, GST fusion (KAT6A, Homo sapiens, UniProt Q92794, residues 1-85)",protein binding microarray,"double-stranded DNA, one strand shown, in vitro","not given, 8-mer, flanks averaged, mean of 2 arrays, mostly near background","reference: not given, higher = stronger binding",E-score,-0.305
GGGAGUUCUACAGUCCGACGAUCUGUAUCCCUGUUUCUUUUCUCCCUACAGAAACAUAUGAGGAUUUUGAUACCAGGAUACUUGAGGUAGGCAUGCAGAAUUAAAUACCUGGUUGGAAUUCUCGGGUGUCAAGG,G3BP1 full length,RNA Bind-n-Seq,"RNA, in vitro","200 nM, whole 134-nt RNA, ends assumed, together with: 150 mM KCl","reference: input library, higher = stronger binding",log2 enrichment,0.213

# For quick reference, copied from above (set 1):
Strand,E-score
AGACTAAG,0.0124
